Measurements pooled from the literature.
Parts stem from different laboratories: compare values within a part only.

Study 1
Target: Prothrombin, mature alpha-thrombin (F2, Homo sapiens, UniProt P00734)
Technique: aptamer microarray, sandwich
Molecule type: DNA with 2'F-ANA
Medium: in vitro
Tested at: 200 nM
Notes: whole 15-mer aptamer, many near background
Added: Cy3 exosite-II aptamer, 400 nM
Direction: higher = stronger binding
Sequence: GGTTGGTGTGGTTGG
`2'F-ANA at 2 3 4 5 7 8 12 13 15`: “mean fluorescence intensity” 147 a.u.
Under “mean fluorescence intensity”, `2'F-ANA at 2 4 5 7 8 10 11` is recorded as 47 a.u.
`2'F-ANA at 1 2 3 4 5 6 9 10 11 12` — result for “mean fluorescence intensity”: 55.7 a.u.
Under “mean fluorescence intensity”, `2'F-ANA at 1 3 4 6 7 8 9 12 13` is recorded as 232 a.u.
`2'F-ANA at 2 4 5 8 9 12 13 15`: “mean fluorescence intensity” 87.3 a.u.
For `2'F-ANA at 3 7 8 10`, “mean fluorescence intensity” read 667 a.u.
For `2'F-ANA at 2 3 5 8 9 10 11 13`, “mean fluorescence intensity” read 87 a.u.
Under “mean fluorescence intensity”, `2'F-ANA at 1 2 4 5 6 8` is recorded as 71.8 a.u.
`2'F-ANA at 2 7 9 11 12 13 14 15`: “mean fluorescence intensity” 144 a.u.
For `2'F-ANA at 5 6 9 12 13 14 15`, “mean fluorescence intensity” read 43.9 a.u.
For `2'F-ANA at 1 2 3 4 5 6 9 10 14`, “mean fluorescence intensity” read 47.8 a.u.
For `2'F-ANA at 1 2 4 6 9 12 15`, “mean fluorescence intensity” read 296 a.u.
For `2'F-ANA at 2 3 4 5 6 10 14 15`, “mean fluorescence intensity” read 48.5 a.u.
`2'F-ANA at 8 9 10 11 12 13 14`: “mean fluorescence intensity” 102 a.u.
`2'F-ANA at 1 2 3 4 11 14 15` — result for “mean fluorescence intensity”: 63.4 a.u.
`2'F-ANA at 1 2 3 4 7 8 10 11 14`: “mean fluorescence intensity” 72.5 a.u.
`2'F-ANA at 1 3 4 5 6 9 11 12 13 14 15` — result for “mean fluorescence intensity”: 48.1 a.u.
For `2'F-ANA at 3 8 13`, “mean fluorescence intensity” read 1020 a.u.
`2'F-ANA at 1 4 5 7 8 9 10 13 14 15` — result for “mean fluorescence intensity”: 48 a.u.
`2'F-ANA at 2 5 7 10 12` — result for “mean fluorescence intensity”: 56.9 a.u.
`2'F-ANA at 1 4 9 10 14` — result for “mean fluorescence intensity”: 170 a.u.
For `2'F-ANA at 1 2 3 4 5 6 7 8 11 12 13 14 15`, “mean fluorescence intensity” read 51.4 a.u.
`2'F-ANA at 3 4 5 6 7 12 13 14 15`: “mean fluorescence intensity” 51.4 a.u.
`2'F-ANA at 5 7 8 9 10 13 14 15`: “mean fluorescence intensity” 45.8 a.u.
`2'F-ANA at 3 4 5 9 10 11 12` — result for “mean fluorescence intensity”: 120 a.u.

Study 2
Target: Centromere-binding protein 1, full length, His-tagged (CBF1, Saccharomyces cerevisiae, UniProt P17106, residues 1-351)
Sequence of UniProt P17106 (whole entry, looked up): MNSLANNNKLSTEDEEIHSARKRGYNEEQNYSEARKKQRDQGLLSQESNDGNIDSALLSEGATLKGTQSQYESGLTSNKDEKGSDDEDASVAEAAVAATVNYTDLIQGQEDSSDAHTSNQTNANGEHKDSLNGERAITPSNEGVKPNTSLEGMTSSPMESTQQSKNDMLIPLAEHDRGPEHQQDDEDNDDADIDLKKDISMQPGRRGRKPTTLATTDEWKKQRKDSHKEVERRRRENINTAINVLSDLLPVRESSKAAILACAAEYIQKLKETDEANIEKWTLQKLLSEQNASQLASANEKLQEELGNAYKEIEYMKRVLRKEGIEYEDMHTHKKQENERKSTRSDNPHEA
Technique: competition protein-binding microarray
Molecule type: double-stranded DNA, one strand shown
Medium: in vitro
Tested at: 2 µM
Notes: whole 60-bp probe, lowest competitor level
Added: Pho4 competitor, 0.05 µM
Direction: higher = stronger binding
`AAAGCGGTAATTTGCGCAGTGGGTGCAGATATCTATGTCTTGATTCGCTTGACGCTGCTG` has a fluorescence intensity of 65.9 a.u.
The fluorescence intensity of `CGTCCTAGTGATTTTCACGTGTTGTCCATGAGGAAGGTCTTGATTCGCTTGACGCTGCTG` is reported as 1080 a.u.
`CGTCCTAGTGATTTTCACGTGTTATCCATGAGGAAGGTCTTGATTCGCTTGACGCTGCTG` gave a fluorescence intensity of 1180 a.u.
For `TCGATTATGGTATTTCTCGTGATGGGCCGGAAAGTTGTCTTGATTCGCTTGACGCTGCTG`, the fluorescence intensity was 176 a.u.
`CGTCCTAGTGATTTTCACGTGTTTTCCATGAGGAAGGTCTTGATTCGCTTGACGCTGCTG` has a fluorescence intensity of 1100 a.u.
`CATTTGACTCCATAGAACGTGTGGAGCTGGTGCCATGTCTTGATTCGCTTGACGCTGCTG` has a fluorescence intensity of 68.4 a.u.
`CTAACGAAGGTTTGCGCTGTGGGTGACAAGCCAAGTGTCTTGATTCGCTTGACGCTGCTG` has a fluorescence intensity of 66.2 a.u.
For `TTTTTCCAAGAGCTTCATATGCAAGCCCGAATCATTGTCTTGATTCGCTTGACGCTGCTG`, the fluorescence intensity was 70.5 a.u.
The fluorescence intensity of `AAATTACTAAGTTCTCACGTGTTTTACCCCGTATGAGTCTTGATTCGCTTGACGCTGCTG` is reported as 1670 a.u.
For `CGCTTATACAAAAGGAACGTGATGGGGACATTATTTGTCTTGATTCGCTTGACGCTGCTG`, the fluorescence intensity was 245 a.u.
For `GATTGATTTTTGCGACTCTTGCGGAAAGGTTCGCCGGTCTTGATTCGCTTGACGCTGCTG`, the fluorescence intensity was 57.6 a.u.
The fluorescence intensity of `AAATTACTAAGTTGTCACTAAACTTACCCCGTATGAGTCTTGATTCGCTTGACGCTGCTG` is reported as 64.5 a.u.
The fluorescence intensity of `AATCTGTGTCAGTTCCACGTTCGTAATGGCAACCCGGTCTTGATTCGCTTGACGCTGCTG` is reported as 58.9 a.u.
`CATACCCAACCTTGTTTGGTGGGTGAAGATATTTGTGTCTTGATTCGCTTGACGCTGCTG` gave a fluorescence intensity of 78.4 a.u.

Study 3
Target: Histone acetyltransferase KAT6A, winged helix 1, GST fusion (KAT6A, Homo sapiens, UniProt Q92794, residues 1-85)
Technique: protein binding microarray
Molecule type: double-stranded DNA, one strand shown
Medium: in vitro
Tested at: not given
Notes: 8-mer, flanks averaged, mean of 2 arrays, mostly near background
Relative to: not given
Direction: higher = stronger binding
Residues (chain): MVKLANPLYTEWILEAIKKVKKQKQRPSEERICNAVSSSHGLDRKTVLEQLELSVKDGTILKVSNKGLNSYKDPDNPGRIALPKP
`CACTCCGA` gave an E-score of 0.00279.
With `ATGGAAAA` the E-score was -0.145.
`ATGTTGTA` has an E-score of -0.142.
`CAGTCGCG` has an E-score of 0.249.
`GCTATGTA` gave an E-score of -0.0739.
`GTCCTGTA` gave an E-score of 0.116.
`ACCTACGG` gave an E-score of 0.253.
`CTTAAAGC` gave an E-score of -0.178.
For `TTATCCAA`, the E-score was -0.194.

Study 4
Target: RING finger protein unkempt homolog, zinc fingers 1-6, GST-SBP tag (UNK, Homo sapiens, UniProt Q9C0B0, residues 30-357)
Sequence of UniProt Q9C0B0 (30-357, looked up): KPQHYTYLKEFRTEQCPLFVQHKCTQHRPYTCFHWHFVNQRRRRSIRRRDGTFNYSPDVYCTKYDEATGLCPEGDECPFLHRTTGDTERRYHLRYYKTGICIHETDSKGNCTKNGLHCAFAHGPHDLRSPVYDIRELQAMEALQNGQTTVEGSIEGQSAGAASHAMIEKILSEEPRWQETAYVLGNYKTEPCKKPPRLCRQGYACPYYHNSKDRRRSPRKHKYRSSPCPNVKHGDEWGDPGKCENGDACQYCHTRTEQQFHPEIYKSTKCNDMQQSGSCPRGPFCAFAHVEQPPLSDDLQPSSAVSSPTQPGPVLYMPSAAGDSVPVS
Technique: RNA Bind-n-Seq
Molecule type: RNA
Medium: in vitro
Tested at: not given
Notes: RNA with constant flanks, human and mouse sites, ends assumed
Relative to: input RNA pool
Direction: higher = stronger binding
With `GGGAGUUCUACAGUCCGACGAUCAAAAUUGUCCGAUGCCAUGAACACAUAGAAAUCCUUACAGUAAAUGGAGAAUUACUGUUUUUUAGACAAAGAGAAGGGCCUUUUUAUCCAACUUUAAGAUUACUUCAUAAAUAUCCUUUUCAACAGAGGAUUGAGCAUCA` the bound/input enrichment was 5.8 ratio.
`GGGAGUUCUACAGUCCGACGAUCUCACUUAGCUACUUUAGAUAACCUUGCAUUACCACUGGUCUGGCCACGUUUGUUAAAUCCUUAUACUGAUAUUCUUCUAAAGAGUAAAUCUCAUCAUUUUUCCAGACAAAUUUUGAGGGGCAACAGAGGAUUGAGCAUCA` gave a bound/input enrichment of 7.35 ratio.
With `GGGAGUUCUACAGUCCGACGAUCAUAACAUAUUUGGGGGUGGGGUGGGGUGUUACUUUGUGUUCUUCCUCCUUAGCCUAUUUUCUUGUGCGUAUGGUCUGUGUGGGGCCCCUUUCACAGCUGACACCACGAAAGGUGAUAUAUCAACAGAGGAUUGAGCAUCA` the bound/input enrichment was 2.05 ratio.
The bound/input enrichment of `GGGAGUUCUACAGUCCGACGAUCGGGCUCCGUGGUAAUGAAUUCUUCUGUGAGGUGGAUGAAGACUACAUCCAGGACAAAUUUAAUCUUACUGGACUCAAUGAGCAGGUGCCUCACUAUCGACAAGCUCUGGACAUGAUCUUACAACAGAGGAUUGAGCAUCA` is reported as 0.191 ratio.
For `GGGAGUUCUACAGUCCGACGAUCGAAGAGACAUAUGGACAAUGAAUCUGCAAAGGGAGAACACCUUUGGUCCUACAGUUUUGCUGACACUGACAUUUUUCUAAGUGGUCACAAAUAGCCUACUUUUUACAUAAAUAACUGGCUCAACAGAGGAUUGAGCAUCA`, the bound/input enrichment was 8.98 ratio.
`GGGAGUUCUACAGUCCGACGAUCGUCCUGACUUUCCUCCCCGCUCCGUGCAGCCGGGCCGUAGCGGCGAUGCGCCUCAUCCAGAACAUGUGUACCAUCGCAGAGUACCCCGCCCCAGGCAGCACCGCUGCCGACUGCUGCCUGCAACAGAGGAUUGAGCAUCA` gave a bound/input enrichment of 0.239 ratio.

Study 5
Target: RNA binding protein fox-1 homolog 2, RRM domain, GST-SBP tag (RBFOX2, Homo sapiens, UniProt O43251-10, residues 100-194)
Technique: RNA Bind-n-Seq
Molecule type: RNA
Medium: in vitro
Tested at: 365 nM
Notes: natural RNA segment, single round, ends assumed
Relative to: no-protein control
Direction: higher = stronger binding
Construct (chain): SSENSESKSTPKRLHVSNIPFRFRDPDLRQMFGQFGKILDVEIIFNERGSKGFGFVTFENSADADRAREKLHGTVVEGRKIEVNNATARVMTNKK
`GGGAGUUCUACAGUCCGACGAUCUUUUGUAUGAAUUUUUAACCUUUUAACAAACUCCCAAAUCUGGUUGAUGCCUUUGACAGUGAUGAAAACGAUUUCACCACAUCUGAAUCCAGAGAAACCGGCUUUUUUUCUGGAAUUCUCGGGUGCCAA`: “RBNS enrichment (R)” 0.652.
Under “RBNS enrichment (R)”, `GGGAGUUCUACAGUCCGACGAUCGAUCCUUGCUUUCCUAGGUAAAUUAUGCUGGAGUGCUUCCAGUACUAAGGCCUCUUGAUUCUUUCCCCUUGAACACUAUGAGCACUGACAAAUCAUGGUAGAGGUGCCCAUGGAAUUCUCGGGUGCCAA` is recorded as 0.533.
For `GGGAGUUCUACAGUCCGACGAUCUGUUGGAUACCAAAGCACGGUAGCUGCCGGGUGAGCGGCAGUGAUUGGCAGAGAUGGGGACUUGAGUGACCAUGUUGGGUUCCCUUCUUCUCCUUCUUGCAGGACACAAAUGGAAUUCUCGGGUGCCAA`, “RBNS enrichment (R)” read 2.11.
Under “RBNS enrichment (R)”, `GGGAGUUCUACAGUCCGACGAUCAACGAGGCCUCUGCAAGCCACUUUUCCAUGCCAAGCAUCCACCCGGCCCACAGGCAUGUUUCUGCCGCCACUCCGCAAGAUGGACAGGGAGCCAGCAGGCAGGCGGGAAGUGGAAUUCUCGGGUGCCAA` is recorded as 2.96.
Under “RBNS enrichment (R)”, `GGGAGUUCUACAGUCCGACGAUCGACUGUGGUAACUAGCUGUGACCAAGAAGAGAAAAUGUUGUGUCUUGGGAAAUGAACUUGGAUCUCUCCAUAAUGGUUUCAACAUUCAAACUUUACUACUUAAGUCAAUAUGGAAUUCUCGGGUGCCAA` is recorded as 0.64.
`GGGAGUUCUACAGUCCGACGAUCACUACAGCAGGUGGAGAUGGUGCAGGGCGGGGUGAUGAGGUUAUAAAACUAUGGAACCUCCUCUGGCCCCACCCCCUUAUCUUUCCCUACUGUUCAUUGUAAAGGGUCAGUGGAAUUCUCGGGUGCCAA`: “RBNS enrichment (R)” 0.226.
Under “RBNS enrichment (R)”, `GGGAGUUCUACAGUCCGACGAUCAUCAUUAUGUUUAACAGGCACUUAAUCUCAGUAAAGUCAGUUGCCAGUUAAGUUCCACCCAGUAGUCAGUCCCCUUUGUAGUUAGUGGGAUUAUUUGAUAAUUGGUUAGAUGGAAUUCUCGGGUGCCAA` is recorded as 0.7.
For `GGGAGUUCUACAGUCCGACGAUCUUUUUCUUAACUUGAUCUGCAAUCCAGAAUUAGACCACAAUGCACCUUUGGUGGUAUCCAUAUAGGAUGCUAGCCUGCCUUGUAGUAAUGUUUUAUAUGUUAAAAACAAAUGGAAUUCUCGGGUGCCAA`, “RBNS enrichment (R)” read 0.522.
`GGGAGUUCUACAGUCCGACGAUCAUGUAAGCUCAGGGUUACACAGUUCCAAAUCUUGGGAAGGGGCUUUUCAGACAGACUGUUUGCUUUCUGCUGAGAUAAGGAAUGCAUCACUCUGCCAGAGUAUGACUUUUUGGAAUUCUCGGGUGCCAA`: “RBNS enrichment (R)” 0.463.
`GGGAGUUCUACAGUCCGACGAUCAGCCCAAUACCAGAGCAUAAACUAUCCAUUCUGGGGUCUGGCUUUAGAAAUCAUCUUUGUGGGAAGACCUAAUUCUUCACAGCAAGGAUCUCAGGCAUGCCUUCUAGAUUUGGAAUUCUCGGGUGCCAA` — result for “RBNS enrichment (R)”: 1.25.
`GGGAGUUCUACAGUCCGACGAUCCCAUGGGAACGGAUGUGGAAGGAAGAACUGUCACCCUCUUAAGGCCCAGGGUCGGAGCCCAGGGCCUCUCCCUUCCUGUCGUUCAAUGGACGUGGUGGUGGCUGUUCCACUGGAAUUCUCGGGUGCCAA` — result for “RBNS enrichment (R)”: 0.327.
Under “RBNS enrichment (R)”, `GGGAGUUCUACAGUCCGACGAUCGCUCCCAGGCGCCCCAUGUCCUCACAGGCCAGGACGCCAUGGCAGGAUGGAGAGGACUUGGUGGAUUUUUGUUUCUUGCCUGACCUCAGUUUCAUGAAAGAAAGUGGAAGUGGAAUUCUCGGGUGCCAA` is recorded as 0.3.

Single results of other studies
`SNARRSLNFGGST`: “Cln2-subtracted enrichment score” 0.332 (human cyclin D2; cyclin docking binding, deep mutational scanning; peptide, yeast cyclin D2-Cln2 system; direction not given).
